# Results gathered from unrelated publications.
# Numbered parts are unrelated; each lists some results of a single study. Positions count from the first letter of the parent shown.

# Series 1
# Target: Ras GTPase-activating protein-binding protein 1, full length (G3BP1, Homo sapiens, UniProt Q13283)
# UniProt Q13283, sequence (whole entry, looked up): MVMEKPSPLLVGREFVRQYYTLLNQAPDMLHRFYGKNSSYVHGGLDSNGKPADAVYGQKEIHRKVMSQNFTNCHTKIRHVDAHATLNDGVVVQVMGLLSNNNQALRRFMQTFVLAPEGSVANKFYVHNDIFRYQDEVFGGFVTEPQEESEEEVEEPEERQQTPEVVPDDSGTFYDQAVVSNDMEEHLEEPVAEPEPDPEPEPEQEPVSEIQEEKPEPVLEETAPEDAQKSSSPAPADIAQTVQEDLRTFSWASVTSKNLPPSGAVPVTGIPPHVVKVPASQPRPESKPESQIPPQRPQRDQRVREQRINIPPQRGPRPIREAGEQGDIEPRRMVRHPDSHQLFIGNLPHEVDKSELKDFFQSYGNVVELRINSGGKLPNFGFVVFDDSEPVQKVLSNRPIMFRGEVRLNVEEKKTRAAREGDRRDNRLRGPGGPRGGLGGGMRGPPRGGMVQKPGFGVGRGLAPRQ
# Method: RNA Bind-n-Seq
# Molecule type: RNA
# Sample: in vitro
# Tested at: 200 nM
# Setting: whole 134-nt RNA, ends assumed
# Together with: 150 mM KCl
# Relative to: input library
# Direction: higher = stronger binding
# Constant ends, left off below: GGGAGUUCUACAGUCCGACGAUC … UGGAAUUCUCGGGUGUCAAGG
Strand,log2 enrichment
CAAGUCCUGUGCUACACAUCGUAUGUACCGAAUCGGAAAGGAAAAAAAGGUUUGGAAAGUAUUAUGUUACGCCGUUCGGAUCUGCACUUC,-1.29
CCUGUGCUACACAUCGUAUGUACCGAAUCGGUUUUUUGGGGUUUUUUGGGUUUUUUGGGGAAAGUAUUAUGUUACGCCGUUCGGAUCUGC,-0.899
ACCAUGCAGGUGUGCAUCUUUGGGAAGUGGGGCAAGGGGGGGAUAGGGAGGGGGGUAACACUUUGGGAACAGGUGGUCCCAGGUCGUUUC,0.931
CACAGACAACACGCACCCACACAGACACAGAGGGAAGGGGUUGGGAUGGGGACAGGGUGCACACCAGGGCGGGGUAGGACCCCAGCCCCU,1.91
AGUCCUGUGCUACACAUCGUAUGUACCGAAUCGGUUUUUUUGGAAAAAGGAAAAAGGAAAGUAUUAUGUUACGCCGUUCGGAUCUGCACU,-1.6
UCCUCAAGUCCUGUGCUACACAUCGUAUGUACCGAAUCGGGCGGCGGGCGGGAAAGUAUUAUGUUACGCCGUUCGGAUCUGCACUUCCAG,0.686
UGGGAGGUGGAUUUUGUUUAUUUUUUUAGCUCAUUUCCAGGGGUGGGAAUUUUUUUUUAAUAUGUGUCAUGAAUAAUGUUGUUUUUGAAA,0.16
GCAGGAAGUAAAAACAAAUGGAAAUGCUUCGGAUAGUGGCAGGGGUGGGGGUUGCUAAGGAAAGGGUGGGAUAGGAGUGGGUAAAGAGUU,0.823
UCCUGUGCUACACAUCGUAUGUACCGAAUCGGGGUUUGGGGAAAAAAAGGGGUUUGGGGAAAGUAUUAUGUUACGCCGUUCGGAUCUGCA,0.806

# Series 2
# Target: CCND2, cyclin fold, Cln2 fusion (human)
# Method: yeast growth competition, sequencing
# Sample: yeast
# Setting: weak parent motif
# Relative to: not given
# Direction: higher = stronger binding
# Starting sequence: KIF20B docking peptide (human); KRAKRKLYTSEIS; partner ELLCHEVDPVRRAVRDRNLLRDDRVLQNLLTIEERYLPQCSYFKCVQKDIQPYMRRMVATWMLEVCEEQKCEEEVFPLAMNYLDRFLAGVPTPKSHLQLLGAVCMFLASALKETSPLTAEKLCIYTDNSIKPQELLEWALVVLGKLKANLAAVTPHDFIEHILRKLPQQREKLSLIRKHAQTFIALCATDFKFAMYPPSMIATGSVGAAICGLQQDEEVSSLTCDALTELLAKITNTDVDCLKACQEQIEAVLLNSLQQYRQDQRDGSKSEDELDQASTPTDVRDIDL
Change,normalised enrichment score
KRAKAKLYTSEIS [R5A],-0.544
KRAKRKLYTSAIS [E11A],-0.00793
KRAKRKLYTSEIA [S13A],-0.452
KRAKRKAYTSEIS [L7A],0.00273
KRAKRKLYTAEIS [S10A],-0.197
KRAKRKLATSEIS [Y8A],-0.127

# Series 3
# Target: Prothrombin, mature alpha-thrombin (F2, Homo sapiens, UniProt P00734)
# Method: aptamer microarray, sandwich
# Molecule type: DNA with 2'F-ANA
# Sample: in vitro
# Tested at: 200 nM
# Setting: whole 15-mer aptamer, many near background
# Together with: Cy3 exosite-II aptamer, 400 nM
# Direction: higher = stronger binding
# Strand: GGTTGGTGTGGTTGG
Modification,mean fluorescence intensity
2'F-ANA at 1 2 3 4 5 6 8 10 12 14,54.7 a.u.
2'F-ANA at 2 5 8 11 12 14,45.4 a.u.
2'F-ANA at 6 7 9 12 14 15,202 a.u.
2'F-ANA at 2 4 5 9 10,84.9 a.u.
2'F-ANA at 1 4 6 7 8 10 11 14,51.7 a.u.
2'F-ANA at 1 2 3 5 10 12 14,44.7 a.u.
2'F-ANA at 2 6 8 9 10 11 12 13,125 a.u.
2'F-ANA at 1 3 6 11 13 14 15,73.9 a.u.
2'F-ANA at 3 6 7 8 11 14 15,473 a.u.
2'F-ANA at 3 5 6 7 9 11 15,80.8 a.u.
2'F-ANA at 1 5 6 8 10 11 12 14 15,87 a.u.
2'F-ANA at 1 3 4 7 12 15,484 a.u.
2'F-ANA at 1 3 7 13 14,91.8 a.u.
2'F-ANA at 3 5 7 15,135 a.u.
2'F-ANA at 4 9 10 13,73.5 a.u.
2'F-ANA at 1 3 13 14 15,85.8 a.u.
2'F-ANA at 2 4 8 9 10 13,72.3 a.u.
2'F-ANA at 1 2 3 5 7 9 10 11 14 15,50.6 a.u.
2'F-ANA at 5 12,207 a.u.
2'F-ANA at 2 3 5 6 9 13 14 15,66 a.u.
2'F-ANA at 2 5 7 8 11 13 14,55.2 a.u.
2'F-ANA at 2 4 6 7 11,211 a.u.
2'F-ANA at 3 4 5 6 7 8 10 12 13 15,94.4 a.u.

# Series 4
# Target: CRIPT, C-terminal peptide
# Method: DHFR complementation, deep sequencing
# Sample: yeast
# Setting: single substitutions, model-inferred values
# Relative to: wild type
# Direction: higher = weaker binding
# Starting sequence: ERBIN, PDZ domain 1 (human); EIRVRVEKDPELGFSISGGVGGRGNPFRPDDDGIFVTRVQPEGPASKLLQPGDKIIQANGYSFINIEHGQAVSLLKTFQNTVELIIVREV; partner TKNYKQTSV
Change,binding free energy change
G52C,0.365 kcal/mol
F35M,1.2 kcal/mol
P51K,0.267 kcal/mol
I56L,0.137 kcal/mol
L49F,0.148 kcal/mol
T37I,0.583 kcal/mol
H68M,0.982 kcal/mol
F14R,0.672 kcal/mol
G52W,0.903 kcal/mol
L48N,0.248 kcal/mol
L75S,0.823 kcal/mol
G60M,0.178 kcal/mol
E7H,-0.0377 kcal/mol
G24P,1.48 kcal/mol
S17G,0.968 kcal/mol
K47A,0.0238 kcal/mol
K8M,1.55 kcal/mol
L84P,0.677 kcal/mol

# Single results of other studies
Molecule,target,assay,test system,conditions,how to read,endpoint,result
"PhoQ, residues 284 288 289 292 302 303 STVVAA","PhoP, residues 12 14 15 18 19 HEGLL (Escherichia coli, UniProt P23836)","Sort-seq, refers to: YFP reporter",E. coli,"PhoQ-PhoP variant library, together with: 10 µM Mg2+","relative to: high Mg2+ state, higher = stronger signaling",fold induction,1.04

# A few entries again (series 2):
Change,normalised enrichment score
KRAKRKAYTSEIS [L7A],0.00273
KRAKRKLYTSEIA [S13A],-0.452
KRAKRKLYTAEIS [S10A],-0.197
KRAKRKLYTSAIS [E11A],-0.00793
KRAKAKLYTSEIS [R5A],-0.544
